Assay results of several laboratories.
Values joined by “and” are separate records of one study, mostly repeats; a detail may differ. ± gives the spread as reported.
Epithelial sodium channel subunit beta: Epithelial sodium channel subunit beta (Homo sapiens, UniProt P51168)
HLA class I histocompatibility antigen, A alpha chain: HLA class I histocompatibility antigen, A alpha chain (Homo sapiens, UniProt P04439)
gag-pol K653N reverse transcriptase: Gag-Pol polyprotein, reverse transcriptase (gag-pol, Human immunodeficiency virus type 1 group M subtype B, UniProt P04585, K653N)

For `[Ni+2]`, “relative specific activity” read 0.056 (uncharacterized protein (Bacteroides thetaiotaomicron, UniProt Q8A183); phosphatase activity, activator, phosphate release; 5 mM, EDTA-treated enzyme, added: substrate 20 mM; relative to: activity with Mg2+).
`NC(=O)C[C@H](NC(=O)Cc1ccc(O)cc1O)C(=O)NCCCCCNCCCNCCCNC(=O)[C@@H](N)CCCN=C(N)N`: “deactivation time constant” “no effect” (Glutamate NMDA receptor; Grin1/Grin2a (Grin1/Grin2a, Rattus norvegicus, UniProt P35439+Q00959); ion current, open-channel blocker, whole-cell patch clamp; HEK293 cells).
`Cc1cn([C@H]2C=C[C@@H](COP(=O)(O)OP(=O)(O)OP(=O)(O)O)O2)c(=O)[nH]c1=O` gave a fold resistance of 3 fold (Gag-Pol polyprotein, reverse transcriptase (gag-pol, Human immunodeficiency virus type 1 group M subtype B, UniProt P04585, K652R); reverse transcriptase activity, inhibitor; HIV-1; relative to: K65R mutant over wild type).
Under “free receptor reduction”, `COc1cc2c3cc1Oc1cc(ccc1O)C[C@@H]1c4c(cc(OC)c(O)c4Oc4ccc(cc4)C[C@@H]3N(C)CC2)CC[N+]1(C)C` is recorded as 75% (Chrnd/Chrna1/Chrne (Mus musculus, UniProt P02716+P04756+P20782); mouse diaphragm; 0.1 µM, AChE inhibited).
For `CC(C)C[C@H](NC(=O)[C@H](Cc1ccccc1)NC(=O)[C@@H]1CCCN1C(=O)[C@H](CCCNC(=N)N)NC(=O)[C@H](CCC(=O)O)NC(=O)[C@@H]1CCCN1C(=O)[C@H](CO)NC(=O)[C@@H](N)CCC(=O)O)C(=O)O`, the kon was 47.5 M⁻¹ s⁻¹ (Epithelial sodium channel subunit beta; binding, bio-layer interferometry).
For `KAYNVTQAF`, the positive donors was 1 donors and 2 donors (human PBMC CD8+ T cells; T cell response; peptide).
With `N[C@@H](C[C@]1(C(=O)O)C[C@H]2OC[C@@H](O)[C@@H](O)[C@H]2O1)C(=O)O` the affinity increase was 10 fold (Glutamate receptor ionotropic, kainate 3 (Rattus norvegicus, UniProt P42264, F446Y/T520A); [3H]kainate displacement; relative to: wild-type GluK3).
The ED50 of `RNCRAPRKK` is reported as 23.7 µM (HLA class I histocompatibility antigen, A alpha chain; peptide binding, iTopia affinity; peptide).
`Cc1c(N2CC[C@@H](CN)C2)c(F)cc2c(=O)n(CCNC(=N)N)c(=O)n(C3CC3)c12`: “concentration giving linear DNA” 25 to 50 µM (DNA gyrase (gyrA/gyrB, Escherichia coli, UniProt P0AES4+P0AES6); DNA cleavage, poison).
For `RASVLSGGK`, the peptide binding was 96.5% (HLA class I histocompatibility antigen, A alpha chain; iTopia binding; peptide; 11 µM, 18 h, 21 °C; relative to: positive control).
The Km of `Nc1nc2c(ncn2[C@H]2C[C@H](O)[C@@H](COP(=O)(O)OP(=O)(O)OP(=O)(O)O)O2)c(=O)[nH]1` is reported as 15.4 ± 6.69 µM (Gag-Pol polyprotein, reverse transcriptase (gag-pol, Human immunodeficiency virus type 1 group M subtype B, UniProt P04585, K653T); nucleotide misinsertion, steady-state kinetics; K66T mutant RT, added: opposite template T).
With `CCN(CC)c1nc(C)cc(OP(=S)(OC)OC)n1` the remaining activity was 98.4% (uncharacterized protein (Anopheles coluzzii, UniProt A0A6E8VQK1); enzyme activity, inhibitor; Sf9 cell homogenate; 0.4587 µM, 0.1667 h, added: α-naphthyl acetate substrate; relative to: no inhibitor).
`O=c1c(I)ccc2n1C[C@@H]1CNC[C@H]2C1` — result for “change in binding sites”: 63.5% (α7* nAChR, mouse; DBA/2J mice, dentate gyrus granular layer; intravenous infusion, 0.2 mg/kg/h, 7 days; relative to: saline).
`ARNCRAPRK` has a peptide binding of 73.5% (HLA class I histocompatibility antigen, A alpha chain; iTopia binding; peptide; 11 µM, 18 h, 21 °C; relative to: positive control).
`Nc1ncnc2c1ncn2[C@H]1C[C@H](O)[C@@H](COP(=O)(O)OP(=O)(O)OP(=O)(O)O)O1` has a kcat of 0.105 ± 0.014 s⁻¹ (gag-pol K653N reverse transcriptase; substrate; K66N mutant, added: matched T:A primer template).
For `N#CC(C#N)=NNc1cccc(Cl)c1`, “luminescence from non-ATP synthase sources” read 29 ± 5% (ATP synthase subunit c, whole ATP synthase complex (atpE, Pseudomonas aeruginosa, UniProt Q9HT15); ATP synthesis, luciferin-luciferase; Pseudomonas aeruginosa, inverted membrane vesicles; 200 µM; relative to: no inhibitor).
With `ELDKYFKNHTSPDVD` the responding donors was 7% (human CD4 T cells; AIM; peptide).
The Km of `Nc1ccn([C@H]2C[C@H](O)[C@@H](COP(=O)(O)OP(=O)(O)OP(=O)(O)O)O2)c(=O)n1` is reported as 1530 ± 1090 µM (gag-pol K653N reverse transcriptase; nucleotide misinsertion, steady-state kinetics; K66N mutant RT, added: opposite template T).
`AKNCRAPRK` has a dissociation half-life of 1080 min (HLA class I histocompatibility antigen, A alpha chain; peptide-MHC complex stability, iTopia off-rate; peptide).
`CC[C@H](C)[C@H](NC(=O)[C@@H](NC(=O)[C@H](CC(C)C)NC(=O)[C@H](CC(N)=O)NC(=O)[C@H](CC(=O)O)NC(=O)[C@H](CCC(=O)O)NC(=O)[C@@H](NC(=O)[C@@H](N)CCCNC(=N)N)[C@@H](C)CC)C(C)C)C(=O)N[C@H](C(=O)N[C@@H](CCCNC(=N)N)C(=O)O)[C@@H](C)CC` has a koff of 0.0507 s⁻¹ (Epithelial sodium channel subunit beta; binding, bio-layer interferometry).
`CCOC(=O)CC(SP(=S)(OC)OC)C(=O)OCC` (stereo not shown) has a remaining activity of 105% (uncharacterized protein (Anopheles coluzzii, UniProt A0A6E8VQK1); enzyme activity, inhibitor; Sf9 cell homogenate; 0.4545 µM, 0.1667 h, added: α-naphthyl acetate substrate; relative to: no inhibitor).
`Cc1cn([C@H]2C[C@H](O)[C@@H](COP(=O)(O)OP(=O)(O)OP(=O)(O)O)O2)c(=O)[nH]c1=O` has a Km of 71.9 ± 63.3 µM (Gag-Pol polyprotein, reverse transcriptase (gag-pol, Human immunodeficiency virus type 1 group M subtype B, UniProt P04585); substrate; misinsertion opposite template T).
For `LARNCRAPR`, the dissociation half-life was 18.6 min (HLA class I histocompatibility antigen, A alpha chain; peptide-MHC complex stability, iTopia off-rate; peptide).
For `CC[C@H](C)[C@H](NC(=O)[C@H](CO)NC(=O)[C@H](Cc1ccc(O)cc1)NC(=O)[C@H](CC(=O)O)NC(=O)[C@H](CO)NC(=O)[C@@H](NC(=O)[C@H](Cc1ccccc1)NC(=O)[C@@H](NC(=O)CNC(=O)[C@H](CCC(=O)O)NC(=O)CCNC(=O)C1(c2ccc(Cl)cc2)CCOCC1)[C@@H](C)O)[C@@H](C)CC)C(=O)N[C@@H](C)C(=O)N[C@@H](CCSC)C(=O)N[C@@H](CC(=O)O)C(=O)N[C@@H](CCCCN)C(=O)N[C@H](C(=O)N[C@@H](Cc1c[nH]cn1)C(=O)N[C@@H](CCC(N)=O)C(=O)N[C@@H](CCC(N)=O)C(=O)N[C@@H](CC(=O)O)C(=O)N[C@@H](Cc1ccccc1)C(=O)N[C@H](C(=O)N[C@@H](CC(N)=O)C(=O)N[C@@H](Cc1c[nH]c2ccccc12)C(=O)N[C@@H](CC(C)C)C(=O)N[C@@H](CC(C)C)C(=O)N[C@@H](C)C(=O)N[C@@H](CCC(N)=O)C(=O)NCC(=O)N1CCC[C@H]1C(=O)N[C@@H](CO)C(=O)N[C@@H](CO)C(=O)NCC(=O)N[C@@H](C)C(=O)N1CCC[C@H]1C(=O)N1CCC[C@H]1C(=O)N1CCC[C@H]1C(=O)N[C@@H](CO)C(=O)N[C@@H](CCCCN)C(N)=O)C(C)C)[C@@H](C)CC`, the Emax was 51% (Glucagon-like peptide 1 receptor (Mus musculus, UniProt O35659); cAMP, agonist).
`RASILSGGK` has a dissociation half-life of 30 min (HLA class I histocompatibility antigen, A alpha chain; peptide-MHC complex stability, iTopia off-rate; peptide).
With `Cc1cn([C@H]2C[C@H](O)[C@@H](COP(=O)(O)OP(=O)(O)OP(=O)(O)O)O2)c(=O)[nH]c1=O` the Km was 0.29 ± 0.07 µM (Gag-Pol polyprotein, reverse transcriptase p66 homodimer (gag-pol, Human immunodeficiency virus type 1 group M subtype B, UniProt P04585); substrate).
With `KNCRAPRKK` the peptide binding was 37.9% (HLA class I histocompatibility antigen, A alpha chain; iTopia binding; peptide; 11 µM, 18 h, 21 °C; relative to: positive control).
For `C[C@@H](O)[C@H](NC(=O)[C@H](Cc1ccccc1)NC(=O)[C@H](Cc1ccccc1)NC(=O)[C@H](CC(=O)O)NC(=O)[C@H](CC(=O)O)NC(=O)[C@H](Cc1c[nH]c2ccccc12)NC(=O)[C@H](CO)NC(=O)[C@@H](N)CCCCN)C(=O)N[C@@H](CCCNC(=N)N)C(=O)O`, the koff was 0.00441 s⁻¹ (Epithelial sodium channel subunit beta; binding, bio-layer interferometry).
